Assay results from different studies.
Protocols differ between the studies behind these lines. ± gives the spread as reported.
ISOC2: Isochorismatase domain-containing protein 2 (ISOC2, Homo sapiens, UniProt Q96AB3)
Chain of UniProt Q96AB3 (whole entry, looked up): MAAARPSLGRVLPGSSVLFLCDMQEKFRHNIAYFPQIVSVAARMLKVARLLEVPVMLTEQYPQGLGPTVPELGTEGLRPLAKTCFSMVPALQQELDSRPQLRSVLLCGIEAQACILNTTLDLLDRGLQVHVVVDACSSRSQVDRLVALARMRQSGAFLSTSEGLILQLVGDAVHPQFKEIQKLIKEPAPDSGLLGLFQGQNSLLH
pufM QA site: Reaction center protein M chain, QA site (pufM, Cereibacter sphaeroides, UniProt P0C0Y9)
Chain of UniProt Q16774 (whole entry, unmodified, looked up): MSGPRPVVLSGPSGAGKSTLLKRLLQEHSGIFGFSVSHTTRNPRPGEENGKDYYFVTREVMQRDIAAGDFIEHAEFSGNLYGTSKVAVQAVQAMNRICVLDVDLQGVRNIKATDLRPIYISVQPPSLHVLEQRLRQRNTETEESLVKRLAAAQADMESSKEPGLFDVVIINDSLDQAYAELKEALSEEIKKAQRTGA
Chain of UniProt P70536 (whole entry, looked up): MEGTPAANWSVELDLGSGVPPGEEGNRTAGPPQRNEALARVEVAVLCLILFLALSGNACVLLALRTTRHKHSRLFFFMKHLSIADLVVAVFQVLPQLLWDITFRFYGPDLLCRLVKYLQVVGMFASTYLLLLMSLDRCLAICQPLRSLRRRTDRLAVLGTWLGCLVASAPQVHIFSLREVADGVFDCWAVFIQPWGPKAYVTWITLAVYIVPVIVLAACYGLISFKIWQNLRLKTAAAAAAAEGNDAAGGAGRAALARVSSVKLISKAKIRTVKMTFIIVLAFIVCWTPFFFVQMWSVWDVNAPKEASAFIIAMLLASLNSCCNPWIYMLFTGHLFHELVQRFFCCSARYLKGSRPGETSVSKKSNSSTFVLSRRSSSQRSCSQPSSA
Chain of UniProt P07451 (whole entry, looked up): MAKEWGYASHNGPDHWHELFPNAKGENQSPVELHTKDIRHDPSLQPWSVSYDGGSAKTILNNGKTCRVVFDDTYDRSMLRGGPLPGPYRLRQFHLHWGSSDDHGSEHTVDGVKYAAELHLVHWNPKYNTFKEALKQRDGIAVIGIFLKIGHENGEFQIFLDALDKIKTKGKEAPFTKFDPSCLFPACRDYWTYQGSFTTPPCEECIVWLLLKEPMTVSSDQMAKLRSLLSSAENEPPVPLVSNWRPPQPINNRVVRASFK
Chain of UniProt Q9X6J6 (whole entry, looked up): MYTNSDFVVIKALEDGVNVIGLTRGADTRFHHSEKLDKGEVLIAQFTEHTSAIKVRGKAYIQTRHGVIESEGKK
Chain of UniProt O60563 (whole entry, looked up): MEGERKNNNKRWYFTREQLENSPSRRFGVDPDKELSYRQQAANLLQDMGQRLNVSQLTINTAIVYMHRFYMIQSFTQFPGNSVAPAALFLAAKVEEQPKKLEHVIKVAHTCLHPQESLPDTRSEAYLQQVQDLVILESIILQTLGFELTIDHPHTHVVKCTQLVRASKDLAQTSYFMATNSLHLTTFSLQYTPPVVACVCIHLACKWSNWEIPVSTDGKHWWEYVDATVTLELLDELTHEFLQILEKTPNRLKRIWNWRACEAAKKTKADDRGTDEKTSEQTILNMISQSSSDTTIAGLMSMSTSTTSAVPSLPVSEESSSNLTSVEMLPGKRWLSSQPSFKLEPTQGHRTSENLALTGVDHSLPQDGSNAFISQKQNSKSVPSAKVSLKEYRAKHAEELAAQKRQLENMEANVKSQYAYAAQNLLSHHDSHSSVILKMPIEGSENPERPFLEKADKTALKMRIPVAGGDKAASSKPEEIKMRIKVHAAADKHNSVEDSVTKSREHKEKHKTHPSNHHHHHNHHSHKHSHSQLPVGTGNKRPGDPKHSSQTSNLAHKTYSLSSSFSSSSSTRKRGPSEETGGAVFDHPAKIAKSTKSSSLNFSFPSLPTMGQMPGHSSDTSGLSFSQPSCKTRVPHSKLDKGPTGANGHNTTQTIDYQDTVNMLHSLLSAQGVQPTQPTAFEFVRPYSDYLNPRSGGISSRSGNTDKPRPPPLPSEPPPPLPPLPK
Chain of UniProt P00370 (whole entry, looked up): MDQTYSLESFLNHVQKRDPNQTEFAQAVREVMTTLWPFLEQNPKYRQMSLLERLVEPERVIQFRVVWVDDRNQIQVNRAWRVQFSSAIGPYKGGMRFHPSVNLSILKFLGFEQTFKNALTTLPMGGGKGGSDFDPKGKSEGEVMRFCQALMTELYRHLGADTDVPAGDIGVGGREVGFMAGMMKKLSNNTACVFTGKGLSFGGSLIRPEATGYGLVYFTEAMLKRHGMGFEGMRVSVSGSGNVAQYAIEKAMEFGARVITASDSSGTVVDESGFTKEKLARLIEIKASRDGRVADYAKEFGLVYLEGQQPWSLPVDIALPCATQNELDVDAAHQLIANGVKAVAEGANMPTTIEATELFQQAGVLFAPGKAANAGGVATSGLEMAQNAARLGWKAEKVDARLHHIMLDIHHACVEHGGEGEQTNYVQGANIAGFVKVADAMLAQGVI
Chain of UniProt Q96FX7 (whole entry, looked up): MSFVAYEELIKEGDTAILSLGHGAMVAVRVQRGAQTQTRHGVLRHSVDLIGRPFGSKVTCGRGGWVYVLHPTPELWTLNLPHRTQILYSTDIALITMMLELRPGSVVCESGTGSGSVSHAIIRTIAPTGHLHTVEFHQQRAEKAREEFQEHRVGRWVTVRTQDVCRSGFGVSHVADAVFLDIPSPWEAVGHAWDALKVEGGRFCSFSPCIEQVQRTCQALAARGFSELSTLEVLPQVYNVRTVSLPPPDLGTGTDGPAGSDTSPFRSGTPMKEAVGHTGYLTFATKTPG
Chain of UniProt P0AGE0 (whole entry, looked up): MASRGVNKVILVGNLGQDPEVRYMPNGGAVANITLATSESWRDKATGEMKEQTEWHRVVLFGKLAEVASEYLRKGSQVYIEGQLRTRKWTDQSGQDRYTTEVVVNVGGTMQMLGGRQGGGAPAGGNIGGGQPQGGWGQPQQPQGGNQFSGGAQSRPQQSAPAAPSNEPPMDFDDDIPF

SMILES | target or system | assay | test system | setting | endpoint | result
Cn1cc(-c2ccc(S(=O)(=O)n3ccc(/C=C/C(=O)Nc4ccccc4N)c3)cc2)cn1 | ISOC2 | inhibitor, competition pulldown | SW620 and MV4-11 lysate | 1 h | Kd | > 30.2 µM
CC[C@@]1(O)C(=O)OCc2c1cc1n(c2=O)Cc2cc3ccccc3nc2-1 | MYC G-quadruplex DNA | binding, fluorescence | – | pH 7.0, 20 °C, together with: K+ 100 mM | Kd | > 2 µM
N[C@@H](Cc1c[nH]c2ccccc12)C(=O)O | Transcription attenuation protein MtrB (mtrB, Geobacillus stearothermophilus, UniProt Q9X6J6) | circular dichroism titration | – | pH 8, 2 µM TRAP rings | Kd | 3 ± 0.6 µM
Nc1nc2c(ncn2[C@@H]2O[C@H](COP(=O)(O)OP(=O)(O)O)[C@@H](OP(=O)(O)OP(=O)(O)O)[C@H]2O)c(=O)[nH]1 | NADP-specific glutamate dehydrogenase (gdhA, Escherichia coli, UniProt P00370) | binding, ITC sequential two-site fit | – | first site | Kd | 2.8 ± 0.4 µM
CC[C@H](CC[C@@H](C)[C@H]1CC[C@H]2[C@@H]3CCC4=CC(=O)CC[C@]4(C)[C@H]3CC[C@]12C)C(C)C | CYP125 ancestral reconstruction | UV-Vis difference spectra | – | Morrison fit, fitted enzyme | Kd | 0.1 ± 0.09 µM
[Cl-].[K+] | furin human | intrinsic fluorescence | – | pH 7.0 | Kd | 11000 ± 600 µM
CC1=CC(=O)CC(C)(C)[C@]1(O)/C=C/C(C)=C\C(=O)O | RIPK1, LRR domain (Fragaria x ananassa, UniProt A0A0C4Y8D1) | binding, isothermal titration calorimetry | – | pH 7.4, 25 °C | Kd | 15.1 ± 2.4 µM
CCCN1CCN(c2ccc(-c3cncc(Cl)c3N3CCC4(CCNC4=O)CC3)cc2)CC1 | Cyclin-T1 (CCNT1, Homo sapiens, UniProt O60563) | SILAC displacement | LS174T-L5 cell lysate | – | Kd | 5.33 µM
CCCCN(Cc1ccc(C(=O)NO)cc1)C(=O)Nc1ccccc1 | ISOC2 | inhibitor, competition pulldown | SW620 and MV4-11 lysate | 1 h | Kd | > 30.2 µM
CCCCCCCC/C=C\CCCCCCCC(=O)OC[C@H](COP(=O)([O-])OCC[N+](C)(C)C)OC(=O)CCCCCCC/C=C\CCCCCCCC | Single-stranded DNA-binding protein (ssb, Escherichia coli, UniProt P0AGE0) | binding, tryptophan fluorescence quenching | Escherichia coli, 100% in DOPC liposomes | 37 °C | Kd | > 30 µM
CC1=C(C)C(=O)c2ccccc2C1=O | pufM QA site | QA site binding | – | – | Kd | < 0.2 µM
COc1ccc([C@H]2Sc3ccccc3N(CCN(C)C)C(=O)[C@H]2OC(C)=O)cc1 | rod cGMP-gated channel Ictalurus punctatus | channel current, blocker, inside-out patch clamp | – | pH 7.6, +30 mV, 120 mM NaCl, low divalent, together with: 1 mM cGMP | Kd | 0.9 ± 0.6 µM
CC[C@H](C)[C@@H]1NC(=O)[C@H](Cc2ccc(O)cc2)NC(=O)[C@@H](N)CSSC[C@@H](C(=O)N2CCC[C@H]2C(=O)N[C@@H](CC(C)C)C(=O)NCC(N)=O)NC(=O)[C@H](CC(N)=O)NC(=O)[C@H](CCC(N)=O)NC1=O | Oxytocin receptor (Rattus norvegicus, UniProt P70536) | binding, kinetic k-1/k1 | rat isolated mammary cells | 20 °C | Kd | 0.0026 µM
COc1ccc(CCCn2ncc3c2nc(N)n2nc(-c4ccco4)nc32)cc1 | adenosine A2A receptor, sheep | competition binding | striatum membranes | one-site model, together with: 24 nM [3H]CGS21680 | Kd | 0.18 ± 0.05 µM
CC[C@H](/C=C/[C@@H](C)[C@H]1CC[C@H]2[C@@H]3CC=C4C[C@@H](O)CC[C@]4(C)[C@H]3CC[C@]12C)C(C)C | CYP125 ancestral reconstruction | UV-Vis difference spectra | – | Morrison fit, fixed enzyme | Kd | 0.6 ± 0.4 µM
O=C(/C=C/c1ccc(CN(CCO)CCc2c[nH]c3ccccc23)cc1)NO | ISOC2 | inhibitor, competition pulldown | SW620 and MV4-11 lysate | 1 h | Kd | > 30.2 µM
COc1cc2c3c(n(CCCNCCO)c(=O)c2cc1OC)-c1nc2c(cc1C3=O)OCO2 | MYC G-quadruplex DNA | binding, fluorescence | – | pH 7.0, 20 °C, together with: K+ 100 mM | Kd | 0.097 µM
CCCOc1cc2c(cc1C(=C1CC1)c1ccc(C(=O)O)cc1)C(C)(C)CCC2(C)C | RXRA (Homo sapiens, UniProt P19793) | binding, tryptophan fluorescence titration | – | – | Kd | 0.026 µM
O=C(CCCCCN1C(=O)c2cccc3cccc(c23)C1=O)NO | ISOC2 | inhibitor, competition pulldown | SW620 and MV4-11 lysate | 1 h | Kd | 0.0405 µM
COc1cc2c3c(n(CCCN4CCOCC4)c(=O)c2cc1OC)-c1nc2c(cc1C3=O)OCO2 | MYC G-quadruplex DNA | binding, fluorescence | – | pH 7.0, 20 °C, together with: K+ 100 mM | Kd | 0.249 µM

SMILES | target or system | assay | test system | setting | endpoint | result
C/C=C1\NC(=O)[C@H]2CSSCC/C=C/[C@H](CC(=O)N[C@H](C(C)C)C(=O)N2)OC(=O)[C@H](C(C)C)NC1=O | ISOC2 | inhibitor, competition pulldown | SW620 and MV4-11 lysate | 1 h | Kd | > 30.2 µM
CCNCCCn1c2c(c3cc(OC)c(OC)cc3c1=O)C(=O)c1cc3c(nc1-2)OCO3 | MYC G-quadruplex DNA | binding, fluorescence | – | pH 7.0, 20 °C, together with: K+ 100 mM | Kd | 0.055 µM
CC(=O)Nc1ccc(C(=O)Nc2ccccc2N)cc1 | ISOC2 | inhibitor, competition pulldown | SW620 and MV4-11 lysate | 1 h | Kd | > 30.2 µM
Nc1ncnc2c1ncn2[C@@H]1O[C@H](COP(=O)(O)OP(=O)(O)O)[C@@H](O)[C@H]1O | GUK1, part: GMP-bound (Homo sapiens, UniProt Q16774) | binding, ITC | – | together with: ATPγS | Kd | 14 ± 3 µM
Nc1nc(-c2ccc(Cl)c(S(N)(=O)=O)c2)cs1 | CA3 (Homo sapiens, UniProt P07451) | thermal shift | – | pH 7.0, 25 °C | Kd | 100 µM
CCCCCCCCCCC1=C(N(C)C)C(=O)c2ccccc2C1=O | pufM QA site | QA site binding | – | – | Kd | 0.3 µM
CC(C)C[C@H](NC(=O)C[C@H](O)[C@H](CC(C)C)NC(=O)[C@H](Cc1c[nH]cn1)NC(=O)CNC(=O)[C@@H](NC(=O)[C@H](C)NC(=O)[C@H](Cc1c[nH]c2ccccc12)NC(=O)[C@H](CCC(N)=O)NC(=O)[C@@H](Cc1ccccc1)NC(=O)COCCOCCNC(=O)CCC(C(=O)O)N1CCN(CC(=O)O)CCN(CC(=O)O)CCN(CC(=O)O)CC1)C(C)C)C(N)=O (stereo partly drawn) [lutetium-177 labelled] | – | – | female BALB/c nu/nu mice, pancreas | intravenous, 50 pmol, 24 h | tissue uptake | 0.05 ± 0.04 %ID/g
Nc1ncnc2c1ncn2[C@@H]1O[C@@H]2COP(=O)(O)O[C@H]3[C@@H](O)[C@H](n4cnc5c(N)ncnc54)O[C@@H]3COP(=O)(O)O[C@H]3[C@@H](O)[C@H](n4cnc5c(N)ncnc54)O[C@@H]3COP(=O)(O)O[C@H]3[C@@H](O)[C@H](n4cnc5c(N)ncnc54)O[C@@H]3COP(=O)(O)O[C@H]2[C@H]1O | Csx1–Crn2^1–444 | – | – | – | Kd | ~1.6 µM
COc1cc2c3c(n(CCCN4CCC[C@H]4CO)c(=O)c2cc1OC)-c1nc2c(cc1C3=O)OCO2 | MYC G-quadruplex DNA | binding, fluorescence | – | pH 7.0, 20 °C, together with: K+ 100 mM | Kd | 0.014 µM
C#Cc1cccc(Nc2ncnc3cc(OC)c(OCCCCCCC(=O)NO)cc23)c1 | ISOC2 | inhibitor, competition pulldown | SW620 and MV4-11 lysate | 1 h | Kd | 1.12 µM
O=C(OC[C@H]1O[C@@H](OC(=O)c2cc(O)c(O)c(O)c2)[C@H](OC(=O)c2cc(O)c(O)c(O)c2)[C@@H](OC(=O)c2cc(O)c(O)c(O)c2)[C@@H]1OC(=O)c1cc(O)c(O)c(O)c1)c1cc(O)c(O)c(O)c1 | TRMT61A (Homo sapiens, UniProt Q96FX7) | binding | – | – | Kd | 0.614 µM
C=CC(=O)N1CCN(c2nc(OC[C@@H]3CCCN3C)nc3c(F)c(-c4nc(N)cc(C)c4C(F)(F)F)c(Cl)cc23)[C@@H](C)C1 | GTPase KRas, GDP-bound (KRAS, Homo sapiens, UniProt P01116) | SPR | – | – | Kd | 0.745 µM
O=[N+]([O-])c1ccc2nn[nH]c2c1 | HG4 designed enzyme (HG3-Core) | stopped-flow tryptophan fluorescence | – | pH 7, 20 °C | Kd | 34 ± 3 µM
C=C1CC[C@H](O)C/C1=C/C=C1\CCC[C@]2(C)[C@@H]([C@H](C)CCCC(C)C)CC[C@@H]12 | CYP125 ancestral reconstruction | UV-Vis difference spectra | – | Michaelis-Menten fit | Kd | 1.4 ± 0.3 µM
Nc1nc2c(ncn2[C@@H]2O[C@H](COP(=O)(O)O)[C@@H](O)[C@H]2O)c(=O)[nH]1 | GUK1 (Homo sapiens, UniProt Q16774, R41A) | binding, ITC | – | 25 °C, together with: GMP | Kd | > 500 µM
CC(C)CCC[C@@H](C)[C@H]1CC[C@H]2[C@@H]3CCC4=CC(=O)CC[C@]4(C)[C@H]3CC[C@]12C | CYP125 ancestral reconstruction | UV-Vis difference spectra | – | Michaelis-Menten fit | Kd | 0.6 ± 0.1 µM
Nc1ccccc1NC(=O)c1ccc(CNc2nccc(-c3cccnc3)n2)cc1 | ISOC2 | inhibitor, competition pulldown | SW620 and MV4-11 lysate | 1 h | Kd | > 30.2 µM
CC(C)[C@H](C)CC[C@@H](C)[C@H]1CC[C@H]2[C@@H]3CC=C4C[C@@H](O)CC[C@]4(C)[C@H]3CC[C@]12C | CYP125 ancestral reconstruction | UV-Vis difference spectra | – | Michaelis-Menten fit | Kd | 3.1 ± 1.5 µM
COC1=C(OC)C(=O)C(CC=C(C)C)=C(C)C1=O | pufM QA site | QA site binding | LDAO detergent solution | pH 7.8, 298 K, together with: 1 µM reaction centres | Kd | 0.1 µM
